Measured values of several laboratories.
Protocols differ between the studies behind these lines. Several values in a cell are separate wells, animals, samples, runs or records. Numbers after ± are the reported error.

`O=C1NC2(CC2)COc2ncc(F)cc2[C@H]2COCCN2c2ccn3ncc1c3n2` — result for “organ-to-body weight ratio”: 0.022 ± 0.002% (Sprague-Dawley rat, female, adrenals; oral, 2.5 mg/kg/day, 4 weeks dosing, end of recovery).
The tissue uptake of `CC[C@H](C)[C@H](NC(=O)[C@H](CCCNC(=N)N)NC(=O)[C@H](CCCCN)NC(=O)[C@H](Cc1ccc(O)cc1)NC(=O)[C@H](CC(=O)O)NC(=O)[C@H](C)NC(=O)CNC(=O)CCOCCOCCOCCNC(=O)CN1CCN(CC(=O)O)CCN(CC(=O)O)CCN(CC(=O)O)CC1)C(=O)N[C@H](C(=O)N[C@H](C(=O)N[C@@H](CCCCN)C(=O)N[C@H](C(=O)N[C@@H](CC(N)=O)C(N)=O)C(C)C)C(C)C)[C@@H](C)O` [copper-64 labelled] is reported as 2.39 ± 0.286 %ID/g (ex vivo gamma counting; C57BL/6J male mice, B16-F10 tumour, lung; intravenous, 1.85 MBq, 20 min).
For `CCn1ccc(-c2cc(-c3cnn(C)c3)cc([C@@H](C)NC(=O)c3cc(OCCN(C)C)ccc3C)c2)n1`, the viability was 97.2% (African green monkey cells; 31.25 µM).
`CSCC[C@H](NC(=O)CNC(=O)[C@H](CCCCN)NC(=O)[C@H](CC(C)C)NC(=O)[C@@H]1CCCN1C(=O)[C@H](CO)NC(=O)[C@H](Cc1c[nH]cn1)NC(=O)[C@H](Cc1c[nH]c2ccccc12)NC(=O)[C@H](CCCNC(=N)N)NC(=O)[C@H](CC(C)C)NC(=O)[C@H](CCCNC(=N)N)NC(=O)[C@H](Cc1c[nH]c2ccccc12)NC(=O)[C@H](CS)NC(=O)CCCCCNC(=O)CN1CCN(CC(=O)O)CCN(CC(=O)O)CCN(CC(=O)O)CC1)C(=O)O` [copper-64 labelled] gave a tissue uptake of 1.98 %ID/g (ex vivo biodistribution; male C57BL/6J mice, spleen; intravenous, 1.85 MBq, 2 h, B16-F10 tumour-bearing).
`C[C@H](O)[C@@H](NC(=O)[C@H]1CCCN1C(=O)[C@@H](CCCCN)NC(=O)[C@@H](CO)NC(=O)[C@@H](Cc1ccc(O)cc1)NC(=O)[C@@H](CC(N)=O)NC(=O)CCOCCOCCOCCNC(=O)CN1CCN(CC(=O)O)CCN(CC(=O)O)CCN(CC(=O)O)CC1)C(=O)N[C@H](CC(=O)O)C(=O)N[C@H](CCCNC(=N)N)C(=O)N[C@H](CCC(N)=O)C(=O)N[C@H](Cc1ccc(O)cc1)C(=O)N[C@H](Cc1c[nH]cn1)C(=O)N[C@H](Cc1ccccc1)C(N)=O` [copper-64 labelled] has a tissue uptake of 0.81 ± 0.15 %ID/g (C57BL/6J mice, heart; intravenous, 1.85 MBq, 0.3333 h, radiolabelled).
`CC[C@H](C)[C@H](NC(=O)[C@H](CCCCN)NC(=O)CNC(=O)[C@H](CC(C)C)NC(=O)[C@H](Cc1ccccc1)NC(=O)[C@H](CCCCN)NC(=O)[C@H](CO)NC(=O)[C@H](Cc1ccccc1)NC(=O)[C@H](Cc1c[nH]c2ccccc12)NC(=O)[C@H](CCC(N)=O)NC(=O)[C@@H](NC(=O)[C@H](Cc1ccccc1)NC(=O)CCCCCNC(=O)CN1CCN(CC(=O)O)CCN(CC(=O)O)CCN(CC(=O)O)CC1)C(C)C)C(=O)N[C@@H](CCC(=O)O)C(=O)N1CCC[C@H]1C(=O)N[C@@H](CC(=O)O)C(=O)N[C@H](C(=O)N[C@@H](CO)C(=O)N[C@@H](CCC(N)=O)C(=O)N[C@H](C(=O)N[C@@H](CCC(N)=O)C(=O)N[C@@H](CC(=O)O)C(=O)N1CCC[C@H]1C(=O)N[C@@H](CC(N)=O)C(=O)N[C@@H](CC(=O)O)C(=O)N[C@@H](CCC(N)=O)C(=O)N[C@@H](Cc1ccc(O)cc1)C(=O)N[C@@H](CCC(=O)O)C(=O)N1CCC[C@H]1C(=O)N[C@@H](Cc1ccccc1)C(=O)O)C(C)C)C(C)C` [copper-64 labelled] has a tissue uptake of 1.13 ± 0.09 %ID/g (C57BL/6 mice, pancreas; vehicle, intratracheal instillation).
For `CC(C)C[C@@H](NC(=O)[C@@H](CCCNC(=N)N)NC(=O)[C@@H](Cc1c[nH]cn1)NC(=O)[C@@H](Cc1c[nH]c2ccccc12)NC(=O)[C@@H](Cc1c[nH]cn1)NC(=O)[C@@H](Cc1ccccc1)NC(=O)[C@H](NC(=O)[C@@H](Cc1ccc(O)cc1)NC(=O)CNC(=O)CNC(=O)CCOCCOCCOCCNC(=O)CN1CCN(CC(=O)O)CCN(CC(=O)O)CC1)[C@H](C)O)C(=O)N[C@H](CC(N)=O)C(=O)N1CCC[C@@H]1C(=O)O` [gallium-68 labelled], the tissue uptake was 0.94 ± 0.18 %ID/g (gamma counting; C57BL/6 mice, male, liver; intravenous, 1.85 MBq, 60 min).
The viability of `Cc1ccc(NC2(C)CN(C)C2)cc1C(=O)N[C@H](C)c1cc(-c2cnn(C)c2)nc2ccccc12` is reported as 97.8% and 89.6% and 91.1% (Vero E6; 31.25 µM).
`CC[C@H](C)[C@H](NC(=O)[C@H](CCCNC(=N)N)NC(=O)[C@H](CCCCN)NC(=O)[C@H](Cc1ccc(O)cc1)NC(=O)[C@H](CC(=O)O)NC(=O)[C@H](C)NC(=O)CNC(=O)CCOCCOCCOCCNC(=O)CN1CCN(CC(=O)O)CCN(CC(=O)O)CCN(CC(=O)O)CC1)C(=O)N[C@H](C(=O)N[C@@H](CC(C)C)C(=O)N[C@@H](CCCCN)C(=O)N[C@H](C(=O)N[C@@H](CC(N)=O)C(N)=O)C(C)C)[C@@H](C)O` [copper-64 labelled] gave a tissue uptake of 0.455 ± 0.047 %ID/g (ex vivo gamma counting; C57BL/6J male mice, B16-F10 tumour, muscle; intravenous, 1.85 MBq, 40 min).
`CN1Cc2cc(Cl)ccc2-n2c(nnc2C2CCN(c3cccc([18F])n3)CC2)C1` has a tissue uptake of 0.49 ± 0.1 %ID/g (C57BL/6 mouse male, brain; intravenous, 3.7 MBq, 15 min).
`CCCC[C@H]1C(=O)N(C)[C@@H](CCCC)C(=O)N[C@@H](CCCNC(=O)CN2CCN(CC(=O)O)CCN(CC(=O)O)CCN(CC(=O)O)CC2)C(=O)N[C@H](C(=O)NCC(N)=O)CSCC(=O)N[C@@H](Cc2ccc(O)cc2)C(=O)N(C)[C@@H](C)C(=O)N[C@@H](CC(N)=O)C(=O)N2CCC[C@H]2C(=O)N[C@@H](Cc2c[nH]cn2)C(=O)N[C@@H](CC(C)C)C(=O)N(C)CC(=O)N[C@@H](Cc2c[nH]c3ccccc23)C(=O)N[C@@H](CO)C(=O)N[C@@H](Cc2c[nH]c3ccccc23)C(=O)N1C` [gallium-68 labelled] gave a tissue uptake of 3.72 ± 0.55 %ID/g (NOD/SCID mice, CHO-hPD-L1 xenograft, spleen; 60 min, atezolizumab 10 mg/kg pretreatment).
